Measured values collected from several papers.
Parts stem from different laboratories: compare values within a part only. Positions count from the first letter of the parent shown.

Study 1
Target: CCNE2, cyclin fold, Cln2 fusion (human)
Technique: yeast growth competition, sequencing
Matrix: yeast
Setting: strong parent motif
Reference: not given
Reading: higher = stronger binding
Starting sequence: CDKN1A docking peptide (human); SKACRRLFGPVDS
Variant	normalised enrichment score
SKACRRLYGPVDS [F8Y]	0.411
SKANRRLFGPVDS [C4N]	0.635
SKACRRLFGMVDS [P10M]	2.49
SKACWRLFGPVDS [R5W]	0.648
SDACRRLFGPVDS [K2D]	3.09
AKACRRLFGPVDS [S1A]	3.52
SGACRRLFGPVDS [K2G]	4.8
SKACRRLFGPVQS [D12Q]	2.96
SKACRDLFGPVDS [R6D]	0.815
SKACRRLFGPADS [V11A]	3.82
SKACKRLFGPVDS [R5K]	1.37
SKAIRRLFGPVDS [C4I]	1.63
SKACRRLFGKVDS [P10K]	2.47
SKACDRLFGPVDS [R5D]	-0.555
SKACRRLFTPVDS [G9T]	4.31
SKACRRLNGPVDS [F8N]	0.237
SKACRVLFGPVDS [R6V]	3.25
SKHCRRLFGPVDS [A3H]	2.71
SKACRRLVGPVDS [F8V]	0.694
SKACRRLDGPVDS [F8D]	0.34
SKACRRLFCPVDS [G9C]	4.11
SKACRRLFGPVIS [D12I]	2.69
SKNCRRLFGPVDS [A3N]	-0.317
SKACGRLFGPVDS [R5G]	0.149
SKACIRLFGPVDS [R5I]	0.226

Study 2
Target: RING finger protein unkempt homolog, zinc fingers 1-6, GST-SBP tag (UNK, Homo sapiens, UniProt Q9C0B0, residues 30-357)
Technique: RNA Bind-n-Seq
Molecule type: RNA
Matrix: in vitro
Tested at: not given
Setting: RNA with constant flanks, human and mouse sites, ends assumed
Reference: input RNA pool
Reading: higher = stronger binding
Target sequence (chain): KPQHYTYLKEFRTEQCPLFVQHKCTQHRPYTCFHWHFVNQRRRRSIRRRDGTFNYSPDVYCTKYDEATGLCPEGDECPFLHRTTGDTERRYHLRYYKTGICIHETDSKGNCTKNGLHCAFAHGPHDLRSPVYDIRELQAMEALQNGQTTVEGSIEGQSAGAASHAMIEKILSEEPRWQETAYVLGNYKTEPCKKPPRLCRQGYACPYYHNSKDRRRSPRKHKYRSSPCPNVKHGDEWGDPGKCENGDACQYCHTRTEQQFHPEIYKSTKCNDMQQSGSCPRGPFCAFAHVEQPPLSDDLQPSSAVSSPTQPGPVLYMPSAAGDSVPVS
Oligonucleotide	bound/input enrichment
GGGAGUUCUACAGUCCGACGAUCGGAAGCUUCCAAAAGAAAACCCCACAAGUUUUCCAUUUUCUUGAAGUAGAAAAAUGAACAGUAAUUAUGAAGAUGAUUAAUAAUUGUGCUAUGGGAUGUGUGGACUGUUUUGUGUGUUUCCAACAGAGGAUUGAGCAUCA	0.307 ratio
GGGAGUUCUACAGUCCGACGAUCGCAAAUUUUGCCAGAAAUGAUGCAAAUUGUAUUCAUAUGGUAGACAAUGGGAUUGUAGAAAAACUUAUGGAUUUACUGGACAGACAUGUAGAAGAUGGAAAUGUAACAGUACAGCAUGCACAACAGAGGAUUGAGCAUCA	0.582 ratio
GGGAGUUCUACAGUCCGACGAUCUGUUUGGUUCUGUGUAUGCAGACACAUGAGCUGUGGGGUAACAAUCAAAACGUAAUCUUUCAUAGAUAGCCAUUACAUUUCUUUAAAUUUUUCAAUGCCGAUGUGUAUUCUAUAAGAGAACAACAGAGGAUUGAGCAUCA	18.3 ratio
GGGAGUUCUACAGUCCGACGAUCGCUUCAGAUGACAUGACUGUGGUAGAUGCAGCUUCAUUAAGACGUCAGAUAAUCAAAUUAAAUAGACGUCUCCAACUUCUGGAAGAGGAGAAUAAAGAGCGUGCUAAAAGAGAAAUGGUCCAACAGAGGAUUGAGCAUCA	0.411 ratio
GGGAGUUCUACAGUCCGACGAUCCACGCAGCAGUUGUGGUCAAUAUUGUGGUAGUCGCUAAUUGUACUGGUUUAAGUGUGCAUUAGUAGUGUCUCCCCAGCUAGAUUGUAAGCUCCUGGAGACAGGGACCACCUCCACCAAAACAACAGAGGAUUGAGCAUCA	0.344 ratio
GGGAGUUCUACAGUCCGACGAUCUAAACAAUCUUUUCUUUUUUUGUGGUUGUGUACUCAUUAUUGCUUGUUCGUCUUUUGCAAUUUAGAUAAAUGAUAUAACAUUAAACUCAAGGUGGUUGAGUUGCAGUAGGGAGUCGGAAGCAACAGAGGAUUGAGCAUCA	7.04 ratio
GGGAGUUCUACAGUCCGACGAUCAAUAUACAUGGAACUUUGGUCUUUGGAACAAGUAGUAGUUUGUCUGGCAUAAUGGCAAACUUAGUUUUCCGAAACAGUUUCAAGGUUAAAUAUGAAGCUUUGAAGACCUAUGCAUCCCUGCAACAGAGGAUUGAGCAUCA	0.214 ratio
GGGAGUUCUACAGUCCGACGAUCUACGUAAUCGAUGAAAAUGAUUAUAUGUCAUUCAUAAACAACCCCAGCCUCACCGUCACAGUGCCAAUUGCUGUUGGAGAGUCUGACUUUGAAAACUUAAAUACUGAAGAGUUCAGCAGUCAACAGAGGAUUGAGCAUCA	0.0822 ratio
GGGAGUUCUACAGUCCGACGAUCUGGUGGAUUGGAAUCAAGUGGGUGGCUGGAGGCCAAGCGUUUUUCGGGGCCCAGAUGAACUCUUUCAUCCACGUGAUCAUGUACUCCUACUAUGGGCUGACUGCGUUCGGCCCCUGGAUCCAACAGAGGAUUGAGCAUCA	0.0657 ratio
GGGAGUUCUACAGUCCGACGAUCACCCAGGCACCAUCCUCUAACAGGCCAAUUGUUCCUGUACCAGGCCCAUUUCCUCUUCUCUUACAUCUUCCUAAUGGACAAACCAUGCCCGUUGCUAUUCCUGCAUCAAUUACAAGUUCUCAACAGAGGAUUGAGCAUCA	0.303 ratio
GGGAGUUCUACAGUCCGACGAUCUCUUGUUUGGAGAGACAUGGGGCAUGUGUCUGCCAAUAGCCAGUUGUUCUCAGUGUGCACUAUGUAGGUCCCCAUCCACUACUUGACCACCUUUAUCAUUUACGGGGAUUUACAUAGAUUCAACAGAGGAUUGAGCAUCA	0.256 ratio

Study 3
Target: Ras GTPase-activating protein-binding protein 1, RRM domain (G3BP1, Homo sapiens, UniProt Q13283)
Chain of UniProt Q13283 (whole entry, looked up): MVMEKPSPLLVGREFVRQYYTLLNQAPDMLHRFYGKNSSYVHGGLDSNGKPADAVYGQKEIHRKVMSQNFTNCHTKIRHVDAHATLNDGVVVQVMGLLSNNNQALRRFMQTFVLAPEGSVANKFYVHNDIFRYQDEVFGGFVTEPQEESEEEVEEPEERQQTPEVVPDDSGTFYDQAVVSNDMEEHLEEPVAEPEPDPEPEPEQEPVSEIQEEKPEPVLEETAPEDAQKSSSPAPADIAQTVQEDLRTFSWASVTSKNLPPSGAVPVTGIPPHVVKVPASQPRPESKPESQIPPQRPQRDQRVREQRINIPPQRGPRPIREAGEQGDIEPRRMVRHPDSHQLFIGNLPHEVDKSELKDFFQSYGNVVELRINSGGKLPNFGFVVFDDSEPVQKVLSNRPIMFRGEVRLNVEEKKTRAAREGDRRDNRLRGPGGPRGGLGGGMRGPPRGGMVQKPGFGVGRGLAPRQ
Technique: RNA Bind-n-Seq
Molecule type: RNA
Matrix: in vitro
Tested at: 1 µM
Setting: whole 134-nt RNA, ends assumed
Together with: 150 mM KCl
Reference: input library
Reading: higher = stronger binding
Oligonucleotide	log2 enrichment
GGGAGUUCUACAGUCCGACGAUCCAAGUCCUGUGCUACACAUCGUAUGUACCGAAUCGGAGGUUUUUGGAAAAAAAGGAAAGUAUUAUGUUACGCCGUUCGGAUCUGCACUUCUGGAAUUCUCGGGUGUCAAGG	-0.173
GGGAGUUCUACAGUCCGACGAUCGCUGUGACCCCAACGCCGGUGCCCGUGGUCGGGAGCCAGAUGACCAGACAAGCCCGGCGCCUCUACGUGGGCAACAUCCCCUUUGGCAUCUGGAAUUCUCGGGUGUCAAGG	-0.354
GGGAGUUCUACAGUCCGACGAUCACCAUGCAGGUGGGCAUCUUUGGGAAGUGGGGCAAGGGGUGGAUAGGGAGGGGGGUAACACUUUGGGAACAGGUGGUCCCAGGUCGUUUCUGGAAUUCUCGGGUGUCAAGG	-0.42
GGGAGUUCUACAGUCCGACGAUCCCUGUGCUACACAUCGUAUGUACCGAAUCGGUUUUUUUGGGGUUUUUUUGGGUUUUUUUGGAAAGUAUUAUGUUACGCCGUUCGGAUCUGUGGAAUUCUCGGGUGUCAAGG	-0.137
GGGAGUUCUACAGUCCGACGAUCACCAUGCAGGUGGGCAUCUUUGGGAAGUGGGGCAAGGGGGGUAUAGGGAGGGGGGUAACACUUUGGGAACAGGUGGUCCCAGGUCGUUUCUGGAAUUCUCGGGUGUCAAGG	0.812
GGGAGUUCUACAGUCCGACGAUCCACAGACAACACGCACCCACACAGUCACAGAGGGAAGGGGUUGGGAUGGGGACAGGGUGCACAGCAGGGCGGGGUAGGACCCCAGCCCCUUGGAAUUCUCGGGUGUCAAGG	-0.129
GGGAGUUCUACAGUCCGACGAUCUCCUGUGCUACACAUCGUAUGUACCGAAUCAAACCCCCCCAAACCCCCCCAAAUUUAAAAAAGUAUUAUGUUACGCCGUUCGGAUCUGCAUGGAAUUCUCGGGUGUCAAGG	-0.136
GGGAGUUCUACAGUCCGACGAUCGGUAUUCUGCAAGUACUGUAGAUGUUAUAGAAAUGAUGGAGGAUGAUAAAGUUGAUCUGAAUUUGAUUGUUGCCCUCAUCCGAUACAUUGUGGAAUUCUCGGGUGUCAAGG	-0.232
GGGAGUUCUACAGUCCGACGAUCCAAGUCCUGUGCUACACAUCGUAUGUACCGAAUCGGGUUUUUGGGAGGGAAAGGGAAAGUAUUAUGUUACGCCGUUCGGAUCUGCACUUCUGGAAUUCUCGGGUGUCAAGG	0.689
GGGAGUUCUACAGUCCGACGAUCGCAGGAAGUAAAAACAAAUGGAAAUGCUUCGGAUAGUGGCAGGGGUGGGGGUUGCUAAGGAAAGGGUGGGAUGGGAGUGGGUAAGGAGUUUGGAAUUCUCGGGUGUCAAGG	0.846

Study 4
Target: RNA binding protein fox-1 homolog 2, RRM domain, GST-SBP tag (RBFOX2, Homo sapiens, UniProt O43251-10, residues 100-194)
Technique: RNA Bind-n-Seq
Molecule type: RNA
Matrix: in vitro
Tested at: 365 nM
Setting: natural RNA segment, single round, ends assumed
Reference: no-protein control
Reading: higher = stronger binding
Residues (chain): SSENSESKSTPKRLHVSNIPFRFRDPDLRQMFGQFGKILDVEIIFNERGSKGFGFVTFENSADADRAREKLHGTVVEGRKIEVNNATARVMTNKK
Oligonucleotide	RBNS enrichment (R)
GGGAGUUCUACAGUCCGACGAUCGCAGAUGCCUGCUCGCUCUGUCACCUGUGCCUCUCAGAACACCAGCAGUUAACCUUCAAGACAUUCCACUUGCUAAAAUUAUUUAUUUUGUAAGGAGAGGUUUUAAUUAAUGGAAUUCUCGGGUGCCAA	0.787
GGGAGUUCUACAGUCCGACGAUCUGAAGAAAUCACUAUUGUGUAUAUACUCAAGUCUUUUUAUUUUUCCUCUUUUCAUAAAUGCUCUUGGACAUUAUUGGGCUUGCAGAGUUCCCUUAUUCUGGGGAUUACAAUGGAAUUCUCGGGUGCCAA	0.929
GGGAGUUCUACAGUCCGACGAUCUGGCAUGUCUUUCUCCCCUGACCCCAAUCUAUUUUAAUAAAGCAGAGUAGUCAUAGUGUUGAAAGAACUGUACUGUUAUCCCGAGUCCCUUCCAAACAAAAAAGGCAAAGUGGAAUUCUCGGGUGCCAA	0.62
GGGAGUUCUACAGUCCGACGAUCCUGUUGCCUAGUAUUCACCUGUGUUACUUUGUAUAUGUCACAGUUCUAUGUUUAAUGCUUUACUAAUUUCCAGUAAGACUAUAUUUAAAACUACAUAGUCUUUCCUUAUUUGGAAUUCUCGGGUGCCAA	1.28
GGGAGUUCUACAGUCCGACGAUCUUUGCAGGCUUUUCUGAAUACCAAAUCUGCUUUUUGUAAAGCGUAAAAACAUCACAAAGUAGGUCAUUCCAUCACCACCCUUGUCUCUCUACACAUUUUGCCUUUGGGGAUGGAAUUCUCGGGUGCCAA	0.501
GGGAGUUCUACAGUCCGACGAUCAGAAAAUGAGCAGAUUUCUUUCCAUUGUGGGCUCUGGAAACCACAUGGCUUCACCUGUCCCCGAAACUACCAGCCCUACACCAUUCCUUCUGCCCUGCUUUUGCUAGGUCUGGAAUUCUCGGGUGCCAA	0.656
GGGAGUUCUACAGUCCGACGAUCACUGGAAGGGGUUUUUGUAUAACUAAAACCUCAGCGCAUAAAGGAGAUUUAAAAGGAGCACAUGAUUUAGUGGGUGGGCCAUGAAACUAGAGAUGGGAUUUGGGGGUGAAUGGAAUUCUCGGGUGCCAA	1.13
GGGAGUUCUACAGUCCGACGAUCUACAGCCCUUUGUACUUCAAAAUAUGUUUUUGUGUCCAUCAGUAUUAACUAUUGGUAUACUACUGGUUUUAUAUUUUUUUUUCUUUGAGACAACAGUACAUAUAAUAGAGUGGAAUUCUCGGGUGCCAA	0.525
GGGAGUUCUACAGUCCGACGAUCUUGCACAUGUUAAGAUAAAUUAUCUUCUAAAACCUUGUUCUUGGGAGCAGUGAAUGUCACUUUACAUGGCUGUUUCUGUCACAUGUUCAUAUCUGAACAUUUUUGGUUAUUGGAAUUCUCGGGUGCCAA	0.339

Repeated from above (study 1):
Variant	normalised enrichment score
SKACIRLFGPVDS [R5I]	0.226
SGACRRLFGPVDS [K2G]	4.8
SKACRRLFCPVDS [G9C]	4.11
AKACRRLFGPVDS [S1A]	3.52
SKACRRLFGPVQS [D12Q]	2.96
SKACRRLNGPVDS [F8N]	0.237
SKACRRLVGPVDS [F8V]	0.694
SKACRRLFGKVDS [P10K]	2.47
SKACGRLFGPVDS [R5G]	0.149
